Measurements from different studies.
Each line is one published result; not all experiments were run side by side.
EGFR L858R/T790M: Epidermal growth factor receptor (EGFR, Homo sapiens, UniProt P00533, L858R/T790M)
MAPK8: Mitogen-activated protein kinase 8 (MAPK8, Homo sapiens, UniProt P45983)
Sequence of UniProt P45983 (whole entry, looked up): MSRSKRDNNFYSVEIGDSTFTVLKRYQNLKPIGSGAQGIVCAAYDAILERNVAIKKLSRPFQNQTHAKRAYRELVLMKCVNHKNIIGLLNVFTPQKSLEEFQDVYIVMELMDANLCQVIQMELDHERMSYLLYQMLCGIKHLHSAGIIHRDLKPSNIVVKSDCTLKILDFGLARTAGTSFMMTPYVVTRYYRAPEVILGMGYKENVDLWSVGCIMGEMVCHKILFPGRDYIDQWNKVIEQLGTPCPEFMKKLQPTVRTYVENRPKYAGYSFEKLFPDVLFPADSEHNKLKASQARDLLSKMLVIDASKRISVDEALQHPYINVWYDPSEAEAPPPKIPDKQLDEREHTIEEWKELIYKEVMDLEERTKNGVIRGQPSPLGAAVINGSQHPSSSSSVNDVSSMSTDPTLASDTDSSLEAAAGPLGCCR
IL1RL2: Interleukin-1 receptor-like 2 (IL1RL2, Homo sapiens, UniProt Q9HB29)
Sequence of UniProt Q9HB29 (whole entry, looked up): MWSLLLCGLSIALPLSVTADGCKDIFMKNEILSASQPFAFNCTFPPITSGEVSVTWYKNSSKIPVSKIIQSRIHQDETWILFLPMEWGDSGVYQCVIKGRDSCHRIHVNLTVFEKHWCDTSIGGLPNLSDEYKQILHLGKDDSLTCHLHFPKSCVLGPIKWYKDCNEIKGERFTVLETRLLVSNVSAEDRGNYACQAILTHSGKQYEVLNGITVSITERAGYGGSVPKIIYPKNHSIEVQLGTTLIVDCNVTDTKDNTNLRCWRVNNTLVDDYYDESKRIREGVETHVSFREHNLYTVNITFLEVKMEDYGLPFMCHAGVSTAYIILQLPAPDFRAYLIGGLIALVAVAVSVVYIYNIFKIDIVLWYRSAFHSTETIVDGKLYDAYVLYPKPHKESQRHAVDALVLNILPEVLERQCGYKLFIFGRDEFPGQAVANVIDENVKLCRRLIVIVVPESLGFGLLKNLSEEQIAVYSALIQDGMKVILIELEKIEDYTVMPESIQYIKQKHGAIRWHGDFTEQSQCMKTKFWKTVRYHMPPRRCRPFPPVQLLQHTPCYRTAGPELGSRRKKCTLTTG
Sequence of UniProt Q8TD08 (whole entry, looked up): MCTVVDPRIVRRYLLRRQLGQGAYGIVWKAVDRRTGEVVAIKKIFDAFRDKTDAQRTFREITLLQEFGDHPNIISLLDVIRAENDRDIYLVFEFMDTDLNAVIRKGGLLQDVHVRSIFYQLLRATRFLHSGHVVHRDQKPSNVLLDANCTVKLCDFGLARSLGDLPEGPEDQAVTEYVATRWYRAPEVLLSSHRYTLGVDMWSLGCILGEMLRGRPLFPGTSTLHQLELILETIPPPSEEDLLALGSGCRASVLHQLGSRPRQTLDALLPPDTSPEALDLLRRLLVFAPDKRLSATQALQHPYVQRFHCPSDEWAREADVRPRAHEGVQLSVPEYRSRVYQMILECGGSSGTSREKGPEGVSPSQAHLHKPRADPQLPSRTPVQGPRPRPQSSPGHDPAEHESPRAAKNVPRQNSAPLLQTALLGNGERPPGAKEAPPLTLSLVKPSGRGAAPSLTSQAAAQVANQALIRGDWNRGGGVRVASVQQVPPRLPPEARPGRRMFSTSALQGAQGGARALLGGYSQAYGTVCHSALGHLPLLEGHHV
Sequence of UniProt Q8IU80 (whole entry, looked up): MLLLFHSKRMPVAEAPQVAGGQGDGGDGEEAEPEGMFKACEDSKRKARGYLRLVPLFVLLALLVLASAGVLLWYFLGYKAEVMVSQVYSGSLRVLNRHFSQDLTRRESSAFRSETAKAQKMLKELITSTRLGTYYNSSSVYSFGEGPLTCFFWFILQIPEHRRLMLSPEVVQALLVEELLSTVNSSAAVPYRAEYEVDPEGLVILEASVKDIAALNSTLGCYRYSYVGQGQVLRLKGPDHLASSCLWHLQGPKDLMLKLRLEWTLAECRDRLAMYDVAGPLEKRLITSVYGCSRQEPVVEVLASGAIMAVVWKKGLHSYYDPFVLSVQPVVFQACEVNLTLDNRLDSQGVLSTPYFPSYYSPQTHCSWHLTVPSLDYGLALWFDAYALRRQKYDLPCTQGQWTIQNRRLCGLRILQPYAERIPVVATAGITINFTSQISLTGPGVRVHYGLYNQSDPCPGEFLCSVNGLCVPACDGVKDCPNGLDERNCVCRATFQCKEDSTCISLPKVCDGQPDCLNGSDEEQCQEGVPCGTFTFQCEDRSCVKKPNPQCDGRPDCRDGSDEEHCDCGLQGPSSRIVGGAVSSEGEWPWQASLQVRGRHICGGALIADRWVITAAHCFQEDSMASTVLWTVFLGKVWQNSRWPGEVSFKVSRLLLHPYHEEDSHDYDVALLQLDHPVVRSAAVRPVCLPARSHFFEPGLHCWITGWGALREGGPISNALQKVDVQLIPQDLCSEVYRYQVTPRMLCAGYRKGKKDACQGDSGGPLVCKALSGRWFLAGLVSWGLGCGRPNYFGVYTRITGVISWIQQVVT
Sequence of UniProt O60307 (whole entry, looked up): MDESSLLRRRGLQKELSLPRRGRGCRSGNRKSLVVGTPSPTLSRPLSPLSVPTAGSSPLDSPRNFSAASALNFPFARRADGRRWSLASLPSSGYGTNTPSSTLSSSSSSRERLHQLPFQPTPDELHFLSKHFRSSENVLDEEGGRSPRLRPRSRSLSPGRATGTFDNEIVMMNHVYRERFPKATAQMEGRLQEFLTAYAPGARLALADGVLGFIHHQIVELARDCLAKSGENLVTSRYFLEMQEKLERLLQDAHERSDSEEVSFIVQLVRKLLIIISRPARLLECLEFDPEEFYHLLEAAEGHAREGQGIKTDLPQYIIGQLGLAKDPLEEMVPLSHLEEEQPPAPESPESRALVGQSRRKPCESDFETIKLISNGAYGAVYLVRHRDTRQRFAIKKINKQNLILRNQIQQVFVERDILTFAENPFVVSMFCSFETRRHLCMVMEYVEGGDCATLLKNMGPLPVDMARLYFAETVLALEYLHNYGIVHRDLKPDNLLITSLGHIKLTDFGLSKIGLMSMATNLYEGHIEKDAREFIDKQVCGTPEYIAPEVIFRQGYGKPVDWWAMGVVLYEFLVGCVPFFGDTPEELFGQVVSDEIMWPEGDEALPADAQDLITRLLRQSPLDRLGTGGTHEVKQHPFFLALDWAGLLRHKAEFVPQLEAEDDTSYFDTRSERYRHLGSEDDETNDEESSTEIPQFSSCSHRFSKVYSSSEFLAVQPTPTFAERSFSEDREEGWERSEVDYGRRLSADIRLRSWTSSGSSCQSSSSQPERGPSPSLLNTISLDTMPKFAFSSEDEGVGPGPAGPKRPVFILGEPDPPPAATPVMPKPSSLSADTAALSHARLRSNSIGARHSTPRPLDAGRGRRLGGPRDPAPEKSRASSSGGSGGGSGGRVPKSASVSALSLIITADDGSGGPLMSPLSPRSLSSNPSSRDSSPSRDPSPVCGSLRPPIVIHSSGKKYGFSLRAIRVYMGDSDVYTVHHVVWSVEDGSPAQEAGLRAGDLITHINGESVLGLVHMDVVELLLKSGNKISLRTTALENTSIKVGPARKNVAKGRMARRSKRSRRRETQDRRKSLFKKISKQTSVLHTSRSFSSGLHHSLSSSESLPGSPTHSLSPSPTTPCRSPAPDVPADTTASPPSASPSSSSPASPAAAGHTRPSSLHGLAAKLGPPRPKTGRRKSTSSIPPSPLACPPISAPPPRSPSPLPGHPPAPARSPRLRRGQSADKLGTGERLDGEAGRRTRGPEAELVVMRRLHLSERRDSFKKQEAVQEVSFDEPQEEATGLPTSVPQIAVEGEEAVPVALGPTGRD

Nc1ncc(-c2cc(-c3cnn(CC(F)(F)F)c3)ncc2F)nc1C(=O)NC1CNCC(F)C1 (stereo not shown) — remaining activity (MAST3 (Homo sapiens, UniProt O60307); enzyme activity; 1 µM; baseline: DMSO control): 97.5%
C[C@](C(=O)NC1CCOCC1)(c1cncnc1)N(C(=O)[C@H](F)Cl)c1ccc(OC(F)(F)Cl)cc1 — remaining activity (Transmembrane protease serine 6 (Homo sapiens, UniProt Q8IU80); enzyme activity, inhibitor; 10 µM): 111%
COCC12C(=O)NC3C4(C(OC)CC1O)C1CC5(O)C(OC)C(O)C(OC(C)=O)(C1C5OC(=O)c1ccccc1)C3(O)C(OC)C24 (stereo not shown) — remaining activity (EGFR L858R/T790M; kinase activity, inhibitor, ProQinase kinase profiling; 25 µM; baseline: control): 98%
COC(=O)[C@@]1(C)C=C(C(=O)Nc2cccc(C(=O)Nc3ccc(Nc4nccc(-c5cccnc5)n4)c(C)c3)c2)C(=O)CC1 — remaining activity (MAPK8; enzyme activity, inhibitor; 0.02032 µM, 18 h, unit not given, added: GSH 10 mM pre-incubation; baseline: vehicle): 0.557
CN(C)C(=O)CNC(=O)c1ccc([C@H]2[C@@H](F)[C@@H](F)C[C@@H](F)[C@H]2F)cc1 — hepatic clearance (hepatocyte stability; cryopreserved human hepatocytes; 1 µM): 6.2 mL/min/kg
CC(C)[C@@H]1NC(=O)[C@H](Cc2ccccc2)NC(=O)CSC[C@@H](C(N)=O)NC(=O)[C@H](CCC(=O)O)NC(=O)[C@H](CO)NC(=O)[C@H](Cc2c[nH]c3cccc(Cl)c23)NC(=O)[C@H](C2CCCCC2)NC(=O)[C@H](C(C)C)NC(=O)[C@H](Cc2ccc(O)cc2)NC(=O)[C@H](CC(=O)O)NC(=O)[C@H](Cc2c[nH]c3ccccc23)NC(=O)[C@H](Cc2ccc(N)nc2)NC(=O)[C@H](Cc2c[nH]c3ccc(Cl)cc23)NC(=O)[C@H](CCC(=O)O)NC1=O — remaining activity (IL1RL2; reporter gene (SEAP), inhibitor, HEK-Blue IL-36R reporter; HEK-Blue IL-36R cells; 1.23 µM, 6 h, added: IL-36γ 100 ng/mL): 100%
COC(=O)[C@@]1(C(C)C)C=C(C(=O)Nc2cccc(C(=O)Nc3ccc(Nc4nccc(-c5cccnc5)n4)c(C)c3)c2)C(=O)CC1 — remaining activity (MAPK8; kinase activity, inhibitor; 1.646 µM, unit not given, added: 10 mM glutathione; baseline: no inhibitor): 0.392
N#Cc1cnc2sc(C(=O)O)cc2c1N1CCc2[nH]nc(C(=O)N[C@@H](CC(=O)NCCOCCN3CCOCC3)c3cccc(Br)c3)c2C1 — remaining activity (IL1RL2; reporter gene (SEAP), inhibitor, HEK-Blue IL-36R reporter; HEK-Blue IL-36R cells; 0.41 µM, 6 h, added: IL36G 0.01 ng/mL): 82.5%
COc1ccccc1-c1ccncc1C(=O)Nc1nnc(OCc2ccc(Cl)cc2)s1 — remaining activity (DNA polymerase theta, helicase domain (POLQ, Homo sapiens, UniProt O75417); ATPase activity, ADP-Glo; 0.004 µM, added: ATP 100 µM): 84%
COc1ccc(NC(=O)Nc2ccc3c(c2)C(=O)N(C(C)CO)CC(C)C(CN(C)Cc2ccc4c(c2)OCO4)O3)cc1 (stereo not shown) — remaining activity (ABL1 (Homo sapiens, UniProt P00519, Y253F); kinase activity; 0.03 µM; baseline: control): 106%
F[C@@H]1[C@H](c2ccc(-c3cncnc3)cc2)[C@H](F)[C@H](F)C[C@@H]1F — hepatic clearance (liver microsome stability; dog liver microsomes; 1 µM): 14 mL/min/kg
O=C=[N][Ru-4]123([n]4c5ccc(O)cc5c5c6c(c7cc(F)c[n+]1c7c54)C(=O)NC6=O)[S+]1CC[S+]2CC[S+]3CC1 (stereo not shown) — remaining activity (EGFR L858R/T790M; enzyme activity; 100 nM, human enzyme, added: 10 µM ATP; baseline: untreated): 85%
Cc1cccc(-c2ccc3nc(NC(=O)C4CCOCC4)nn3c2)c1 — remaining activity (MAPK15 (Homo sapiens, UniProt Q8TD08); enzyme activity, Dundee kinase panel; 10 µM): 83%

Some of these lines once more:
COC(=O)[C@@]1(C)C=C(C(=O)Nc2cccc(C(=O)Nc3ccc(Nc4nccc(-c5cccnc5)n4)c(C)c3)c2)C(=O)CC1 — remaining activity (MAPK8; enzyme activity, inhibitor; 0.02032 µM, 18 h, unit not given, added: GSH 10 mM pre-incubation; baseline: vehicle): 0.557
CN(C)C(=O)CNC(=O)c1ccc([C@H]2[C@@H](F)[C@@H](F)C[C@@H](F)[C@H]2F)cc1 — hepatic clearance (hepatocyte stability; cryopreserved human hepatocytes; 1 µM): 6.2 mL/min/kg
